Measurements from different studies.
A part holds a random share of what one study measured. Several values in a cell are separate wells, animals, samples, runs or records.
UniProt P08912, sequence (whole entry, looked up): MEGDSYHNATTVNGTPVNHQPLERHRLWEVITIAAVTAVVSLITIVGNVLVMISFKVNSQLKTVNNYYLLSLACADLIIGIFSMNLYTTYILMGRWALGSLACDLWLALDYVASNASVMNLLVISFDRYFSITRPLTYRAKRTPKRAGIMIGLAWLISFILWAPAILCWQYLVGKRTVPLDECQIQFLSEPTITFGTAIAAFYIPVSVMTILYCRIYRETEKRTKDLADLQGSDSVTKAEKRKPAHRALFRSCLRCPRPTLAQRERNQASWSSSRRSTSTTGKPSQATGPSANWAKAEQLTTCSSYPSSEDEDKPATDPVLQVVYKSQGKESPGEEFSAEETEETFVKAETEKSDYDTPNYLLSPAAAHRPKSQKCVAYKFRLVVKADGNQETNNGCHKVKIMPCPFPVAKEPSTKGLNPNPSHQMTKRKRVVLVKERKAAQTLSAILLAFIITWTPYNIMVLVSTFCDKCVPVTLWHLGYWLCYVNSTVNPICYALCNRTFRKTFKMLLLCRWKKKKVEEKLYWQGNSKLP

Block 1 — method: competition protein-binding microarray; molecule type: double-stranded DNA, one strand shown; sample: in vitro; concentration: 2 µM; added: Pho4 competitor, 0.05 µM; reading: higher = stronger binding; quantity: fluorescence intensity; shared flanks, not repeated: … GTCTTGATTCGCTTGACGCTGCTG
Target: Centromere-binding protein 1, full length, His-tagged (CBF1, Saccharomyces cerevisiae, UniProt P17106, residues 1-351)
UniProt P17106, sequence (whole entry, looked up): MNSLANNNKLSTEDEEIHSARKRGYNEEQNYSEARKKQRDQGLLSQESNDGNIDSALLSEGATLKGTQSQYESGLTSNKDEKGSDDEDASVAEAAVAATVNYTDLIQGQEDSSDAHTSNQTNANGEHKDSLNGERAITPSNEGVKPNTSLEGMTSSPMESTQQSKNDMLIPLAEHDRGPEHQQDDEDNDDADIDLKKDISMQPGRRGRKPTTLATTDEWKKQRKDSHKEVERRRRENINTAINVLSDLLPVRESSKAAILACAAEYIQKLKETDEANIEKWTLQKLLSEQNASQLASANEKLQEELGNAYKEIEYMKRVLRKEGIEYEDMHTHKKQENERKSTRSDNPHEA
Notes: whole 60-bp probe, lowest competitor level
GTCTCTCGTCCCATGCTCGTGCGATTTGTGCATTCA: 105 a.u.
CATACCCAACCTTGTTCAGTGGGTGAAGATATTTGT: 75.8 a.u.
TTCTTTATCTGATGATTCGTGATGGTCTAAATCTGC: 83.3 a.u.
AAAGAGGGTCCATTCGGCGTGCTTTTGGTACTGTGA: 60.9 a.u.
TTTCGATGGTTAGGCTTCGTGGGTAAAAAGTCGAGC: 68.2 a.u.
AAAGCGGTAATTTGATGGGTGGGTGCAGATATCTAT: 73.1 a.u.
CAAGGCTCTTCAAACCATGTGACAGTAAACTTCGCA: 1170 a.u.
CTAACGAAGGTTTGGGGCGTGGGTGACAAGCCAAGT: 68.1 a.u.

Block 2 — method: RNA Bind-n-Seq; molecule type: RNA; sample: in vitro; concentration: not given; notes: RNA with constant flanks, ends assumed; relative to: input RNA pool; reading: higher = stronger binding; quantity: bound/input enrichment
Target: RING finger protein unkempt homolog, zinc fingers 1-6, GST-SBP tag (UNK, Homo sapiens, UniProt Q9C0B0, residues 30-357)
Shared flanks, not repeated: GGGAGUUCUACAGUCCGACGAUC … CAACAGAGGAUUGAGCAUCA
Residues (chain): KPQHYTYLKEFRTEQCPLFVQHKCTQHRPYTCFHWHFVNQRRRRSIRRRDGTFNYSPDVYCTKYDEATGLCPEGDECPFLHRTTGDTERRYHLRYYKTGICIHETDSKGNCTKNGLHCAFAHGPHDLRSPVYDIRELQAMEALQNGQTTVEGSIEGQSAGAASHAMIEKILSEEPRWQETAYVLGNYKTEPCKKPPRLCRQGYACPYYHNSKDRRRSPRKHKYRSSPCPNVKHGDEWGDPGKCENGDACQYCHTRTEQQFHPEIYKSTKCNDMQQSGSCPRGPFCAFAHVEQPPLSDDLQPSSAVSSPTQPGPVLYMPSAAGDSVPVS
CAAAAGAUCCUGGCUAACUGUUCUUCUCCCUACCAGGUAGACCUGUUUGGUAUAGCAGAUUCCGCACAUUUACUAUUGUUCAAGGAACACCUACAGGUCUUCUGGGAUGGGUCCUUCUGG: 0.0577 ratio
GCUAGUAACAAUCGUUUAUUUCAGCUUGUAAUGAAAGGCCUGCUUUAUGAAUGCUGUGCCGAAUUUUGUCAGAGUAAAGCAACUGGAGAAGAAAUUACAGAAAGCGAAGUGCUUCUUGGC: 0.307 ratio
ACUGGUGGUGCAGCCUCUGUGAAGCAGCACCAUUCAAGUGCCCAUAACAAAGAUAUUGCUUCCGGGGUAUUUGAUGUGGUGGUGACGGACCCCUCAUGCCCAGCCUCGGUGCUGAAGUGU: 0.0788 ratio
CUAGCAGUUAUAAGGCACCUUGAAAUAAAUUGUUUGUGCCUGGAAAUGCAGGGAGGGCAACCGCUUUGUAAAUUGGUUUACAUUUUUCUCCUUGAAUUUUUCUAGGGUCCUAGUGCUUCC: 0.543 ratio
UCGGGGUGGAAGUCCAUGAUUCAGUCUCAUCCCCAUUUAGUGGCAGAAGCGUUCCGAGCACCCGCAUCUUCACAGUGUCCACAGUUUGGUAUUCCACGCAAAAGGUUAAAGCAGUCUUGA: 0.118 ratio
CUUCAGUUACAUCCCAGGGAAGAUGCUUGCAUCCCCAAUACAAACUAUGGUGUUCUCUUAACCGAAUUUUUUGAAUUAUAUGGACGACACUUCAAUUAUUUAAAGACUGGCAUCCGGAUA: 0.274 ratio
UCGCCUGUUCAGGACAUCGACACUCCAGAGGUUGAUUUGUACCAAUUACAAGUAAAUACACUCCGAAGAUACAAAAGACACUUCAAGCUUCCAACCAGACCAGGUCUAAAUAAAGCACAA: 0.119 ratio
CUGAAUAGCAAUAAAUAUUUUCCCAGCAGGGUUAGCAUAAAGGAAUCAUCUGUAGCGAAACCCGGAUCAGUAUGCCGUAGGAUUUACAGAAUAUUUUCACAUGCUUAUUUUCAUCAUCGG: 1.99 ratio

Further values, each from its own experiment
CC(=O)Nc1c(C(C)=O)c(=O)n(C)c2nc(-c3ccc(Cl)cc3Cl)c(-c3ccc(Cl)cc3)cc12  inhibition (CHRM5 (Homo sapiens, UniProt P08912); cell-free assay; 10 µM): -4.54%
PhoQ, residues 284 288 289 292 302 303 DDMDFR  fold induction (PhoP, residues 12 14 15 18 19 LWHSL (Escherichia coli, UniProt P23836); Sort-seq, refers to: YFP reporter; E. coli; PhoQ-PhoP variant library, added: 10 µM Mg2+; relative to: high Mg2+ state, higher = stronger signaling): 0.681 and 0.657
COc1cc(=O)n2c(c1C(=O)NCc1ccccc1C(F)(F)F)CCCC2  remaining compound (mouse, microsomes or S9; 2 µM, 0.5 h): 10.5%

For quick reference, copied from above (block 2):
ACUGGUGGUGCAGCCUCUGUGAAGCAGCACCAUUCAAGUGCCCAUAACAAAGAUAUUGCUUCCGGGGUAUUUGAUGUGGUGGUGACGGACCCCUCAUGCCCAGCCUCGGUGCUGAAGUGU: 0.0788 ratio
CUAGCAGUUAUAAGGCACCUUGAAAUAAAUUGUUUGUGCCUGGAAAUGCAGGGAGGGCAACCGCUUUGUAAAUUGGUUUACAUUUUUCUCCUUGAAUUUUUCUAGGGUCCUAGUGCUUCC: 0.543 ratio
